# Measured values collected from several papers.
# Each line is one published result; not all experiments were run side by side. ± gives the spread as reported.
# Organism: herpes simplex virus 1
SMILES,test,test system,EC50
NC(=O)c1ncn([C@@H]2O[C@H](CO)[C@@H](O)[C@H]2O)n1,viral replication,"HEL, TK- KOS ACV-resistant",125 µM
Cc1ccc(S(=O)(=O)N2C(=O)CSC2c2ccccc2[N+](=O)[O-])cc1 (stereo not drawn),viral cytopathicity,"HEL, KOS",> 100 µM
Nc1ncn(CC(O)C(F)(F)F)c(=O)n1 (stereo not drawn),cytopathic effect,"HEL, KOS, TK-deficient, acyclovir-resistant",> 446 µM
Cc1ccc(S(=O)(=O)N2C(=O)CSC2c2ccccc2)cc1 (stereo not drawn),viral cytopathicity,"HEL, KOS TK-deficient acyclovir-resistant",> 100 µM
CCOC(=O)C(C)NP(=O)(COC(CF)CN1CN2C=C(c3ccccc3)NC2=NC1=O)NC(C)C(=O)OCC (stereo not drawn),cytopathic effect,"HEL, KOS, TK-deficient, acyclovir-resistant",> 100 µM
O=c1[nH]c(=O)c2ncn(CC(CO)OCP(=O)(O)O)c2[nH]1 (racemic),cytopathic effect,"HEL, KOS TK- acyclovir-resistant",38 µM
C[C@H](NP(=O)(OCCOCn1cnc2c(=O)[nH]c(N)nc21)Oc1cccc2ccccc12)C(=O)OC(C)(C)C (stereo partly drawn),cytopathic effect,"HEL fibroblasts, KOS",≥ 50 µM
C[C@H](Cn1cnc2c(=O)[nH]c(=O)[nH]c21)OCP(=O)(O)O,cytopathic effect,"HEL, KOS TK- acyclovir-resistant",> 100 µM
Nc1ncn(C[C@@H](CF)OCP(=O)(O)O)c(=O)n1,cytopathic effect,"HEL, KOS, TK-deficient, acyclovir-resistant",> 100 µM
Cc1ccc(S(=O)(=O)N2C(=O)CSC2c2cccc([N+](=O)[O-])c2)cc1 (stereo not drawn),viral cytopathicity,"HEL, KOS TK-deficient acyclovir-resistant",> 100 µM
O=c1[nH]c(=O)c2ncn(C[C@@H](CF)OCP(=O)(O)O)c2[nH]1,cytopathic effect,"HEL, KOS TK- acyclovir-resistant",> 329 µM
Cc1ccc(S(=O)(=O)N2C(=O)CSC2c2ccccc2F)cc1 (stereo not drawn),viral cytopathicity,"HEL, KOS",> 100 µM
NC(=O)c1ncn([C@@H]2O[C@H](CO)[C@@H](O)[C@H]2O)n1,viral replication,"HEL cells, KOS ACV-resistant TK-deficient",2 µM
O=c1nc(NC2CC2)c2ncn(CCOCP(=O)(O)O)c2[nH]1,cytopathic effect,"HEL, KOS TK- acyclovir-resistant",> 100 µM
Nc1nc(O)c2ncn(COC(CO)CO)c2n1,cytopathic effect,"HEL, KOS, TK-deficient, acyclovir-resistant",1.1 ± 0.7 µM

# Some of these lines once more:
SMILES,test,test system,EC50
C[C@H](Cn1cnc2c(=O)[nH]c(=O)[nH]c21)OCP(=O)(O)O,cytopathic effect,"HEL, KOS TK- acyclovir-resistant",> 100 µM
Nc1ncn(C[C@@H](CF)OCP(=O)(O)O)c(=O)n1,cytopathic effect,"HEL, KOS, TK-deficient, acyclovir-resistant",> 100 µM
